Published values from different studies.
Compare with care: the assays were run in different laboratories. Numbers after ± are the reported error.

Structure (SMILES)	test	test system	setting	half-life
CC[C@H](C)[C@H](NC(=O)[C@@H](N)[C@@H](C)O)C(=O)N[C@@H](CCCCN)C(=O)N[C@H](C(=O)N1CCC[C@H]1C(=O)N[C@@H](C)C(=O)NCC(=O)N[C@H](C(=O)O)[C@@H](C)O)[C@@H](C)CC	–	human plasma	0.1 mg/mL, 37 °C	0.281 ± 0.00667 h
C#CCOCCOCCOCCOCCn1cc(C(ONC(=O)/C=C/C(C)=C/C2(C)Oc3cc(N(C)C)ccc3C2=O)(c2ccccc2)c2ccccc2)nn1 (stereo not drawn)	HPLC	aqueous buffer	pH 4.3	stable
CCCCCCCCN(CCC(=O)Nc1ccccc1)C(=O)c1ccccn1	–	human serum	0.5 mM, 37 °C	> 24 h
Cn1cc(C(N)=O)c(NC2C3CC4CC2CC(OS(=O)(=O)O)(C4)C3)c2ccnc1-2 (stereo not drawn)	–	Japanese adults, mild hepatic impairment, plasma	oral, 150 mg single dose	9.94 h
CCC(C)C(N)C(=O)OC(C)OC(=O)C1=CC(N=C(N)N)C(NC(C)=O)C(C(O)C(O)CO)O1 (mixture of isomers)	–	acetate buffer	pH 4, 37 °C, chemical hydrolysis	> 4 h
Cc1cccc(C)c1OCC(=O)N[C@@H](Cc1ccccc1)[C@H](C[C@H](Cc1ccccc1)NC(=O)[C@H](C(C)C)N1CCCNC1=O)OC(=O)[C@@H](N)CC(C)C	–	DPBS	50 µM, pH 7.4, 37 °C	15.4 ± 0.3 h
CC(C)[C@H](NC(=O)CNC(=O)[C@H](CCC(N)=O)NC(=O)[C@H](C)N)C(=O)O	–	healthy volunteers, LPS endotoxaemia, plasma	intravenous, 45 mg/kg/h, 2 h infusion, geometric mean, added: LPS 2 ng/kg	0.11 h
COc1cc(-c2nc3ccc(C(=O)NCCCN4CCN(c5cccc(C)c5C)CC4)cc3n2C2CCC2)cc(OC)c1OC	–	mouse liver microsomes	–	< 0.5 h
Nc1nc2c(ncn2COCCOC(=O)CCC(=O)OC[C@H](N)C(=O)O)c(=O)[nH]1	–	DPBS	pH 7.4, 34 °C, chemical hydrolysis	38 ± 12 h
O=C(Nc1ccc(-c2noc(C3CC3)n2)c(Cl)c1)c1cccs1	chemical stability	buffer	5 µM, pH 10.0, 37 °C	0.877 ± 0.207 h
CCC(CC)O[C@@H]1C=C(C(=O)OC(OC(=O)[C@@H](N)C(C)C)C(C)C)C[C@H](NC(=N)N)[C@H]1NC(C)=O (single isomer, unassigned)	chemical stability	SGF without pepsin	pH 1.2, 37 °C	stable
CC(C)C[C@H](NC(=O)[C@H](C)NC(=O)[C@H](Cc1c[nH]c2ccccc12)NC(=O)[C@H](Cc1ccc(O)cc1)NC(=O)[C@H](CCC(=O)O)NC(=O)[C@H](C)NC(=O)[C@H](Cc1ccccc1)NC(=O)[C@H](CO)NC(=O)[C@@H](N)[C@@H](C)O)C(=O)N[C@@H](CC(C)C)C(=O)N[C@@H](CO)C(=O)N1CCC[C@H]1C(=O)O	chymotrypsin digestion, substrate, HPLC-MS	–	room temperature	< 0.1 h
CC[C@H](NC(=O)[C@H](CC(C)C)NC(=O)NCc1ccccc1)C(=O)C(=O)NCc1cccc(Cl)c1OC	loss of calpain inhibitory activity	PBS	200 nM, room temperature, epimerisation	~0.25 h
COc1cc(C)c(Cc2ccc(O)cc2)cc1[C@@H]1S[C@H](CO)[C@@H](O)[C@H](O)[C@H]1O	–	Japanese T2DM patients, plasma	5 mg luseogliflozin, day 7, once daily	19.3 ± 3.63 h
NCCC(=O)N[C@@H](Cc1c[nH]c2ccc(O)cc12)C(=O)N[C@@H](Cc1ccc(Cl)cc1)C(=O)N[C@@H](Cc1ccncc1)C(N)=O	EphA4-ephrin-A5 ELISA	mouse serum	37 °C	~12 h

Some of these lines once more:
Structure (SMILES)	test	test system	setting	half-life
Nc1nc2c(ncn2COCCOC(=O)CCC(=O)OC[C@H](N)C(=O)O)c(=O)[nH]1	–	DPBS	pH 7.4, 34 °C, chemical hydrolysis	38 ± 12 h
O=C(Nc1ccc(-c2noc(C3CC3)n2)c(Cl)c1)c1cccs1	chemical stability	buffer	5 µM, pH 10.0, 37 °C	0.877 ± 0.207 h
CCC(CC)O[C@@H]1C=C(C(=O)OC(OC(=O)[C@@H](N)C(C)C)C(C)C)C[C@H](NC(=N)N)[C@H]1NC(C)=O (single isomer, unassigned)	chemical stability	SGF without pepsin	pH 1.2, 37 °C	stable
